Experimental data collected from several papers.
Each line is one published result; not all experiments were run side by side. Numbers after ± are the reported error.
CHRM5: Muscarinic acetylcholine receptor M5 (CHRM5, Homo sapiens, UniProt P08912)
UniProt P08912, sequence (whole entry, looked up): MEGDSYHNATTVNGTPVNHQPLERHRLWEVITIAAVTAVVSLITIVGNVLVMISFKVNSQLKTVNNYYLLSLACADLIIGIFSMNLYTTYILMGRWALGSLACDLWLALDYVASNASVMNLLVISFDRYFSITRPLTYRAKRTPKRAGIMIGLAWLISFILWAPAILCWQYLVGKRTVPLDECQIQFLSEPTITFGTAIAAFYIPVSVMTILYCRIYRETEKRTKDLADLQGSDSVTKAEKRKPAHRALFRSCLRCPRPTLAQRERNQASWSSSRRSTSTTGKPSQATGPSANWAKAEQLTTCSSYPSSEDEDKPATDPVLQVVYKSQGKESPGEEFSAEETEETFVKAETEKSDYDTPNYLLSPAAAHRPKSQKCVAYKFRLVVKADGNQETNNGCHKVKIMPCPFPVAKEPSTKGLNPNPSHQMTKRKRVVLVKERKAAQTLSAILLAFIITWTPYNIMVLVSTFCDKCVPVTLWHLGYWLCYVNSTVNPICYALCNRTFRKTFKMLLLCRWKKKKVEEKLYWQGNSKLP
TDP1: Tyrosyl-DNA phosphodiesterase 1 (TDP1, Homo sapiens, UniProt Q9NUW8)
UniProt Q9NUW8, sequence (whole entry, looked up): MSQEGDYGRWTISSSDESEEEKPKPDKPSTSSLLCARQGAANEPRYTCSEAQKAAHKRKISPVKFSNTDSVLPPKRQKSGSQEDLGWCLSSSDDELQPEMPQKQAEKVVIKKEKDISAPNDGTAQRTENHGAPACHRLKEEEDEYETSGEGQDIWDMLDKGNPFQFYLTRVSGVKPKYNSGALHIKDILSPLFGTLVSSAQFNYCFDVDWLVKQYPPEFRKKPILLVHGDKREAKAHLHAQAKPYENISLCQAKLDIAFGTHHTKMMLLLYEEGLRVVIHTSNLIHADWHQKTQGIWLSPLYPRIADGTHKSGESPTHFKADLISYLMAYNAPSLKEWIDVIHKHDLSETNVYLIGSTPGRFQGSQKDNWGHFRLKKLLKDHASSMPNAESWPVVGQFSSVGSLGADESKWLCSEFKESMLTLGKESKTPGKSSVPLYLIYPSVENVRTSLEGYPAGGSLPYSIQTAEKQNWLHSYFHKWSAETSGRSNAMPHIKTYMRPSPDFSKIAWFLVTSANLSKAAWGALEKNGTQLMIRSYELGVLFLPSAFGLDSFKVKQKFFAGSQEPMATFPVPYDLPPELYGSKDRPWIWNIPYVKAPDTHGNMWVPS
NTSR1: Neurotensin receptor type 1 (NTSR1, Homo sapiens, UniProt P30989)
UniProt P30989, sequence (whole entry, looked up): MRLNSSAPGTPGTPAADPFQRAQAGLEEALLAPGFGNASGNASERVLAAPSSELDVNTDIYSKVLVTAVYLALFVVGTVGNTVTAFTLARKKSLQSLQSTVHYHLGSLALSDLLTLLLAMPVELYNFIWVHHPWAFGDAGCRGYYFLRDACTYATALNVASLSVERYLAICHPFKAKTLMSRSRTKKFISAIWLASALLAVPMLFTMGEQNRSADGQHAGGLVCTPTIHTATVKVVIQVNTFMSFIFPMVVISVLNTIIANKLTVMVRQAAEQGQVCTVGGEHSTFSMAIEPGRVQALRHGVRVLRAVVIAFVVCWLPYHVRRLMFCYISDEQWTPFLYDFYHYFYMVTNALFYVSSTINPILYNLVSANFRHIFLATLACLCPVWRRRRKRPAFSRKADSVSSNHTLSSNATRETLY
UniProt O09047, sequence (whole entry, looked up): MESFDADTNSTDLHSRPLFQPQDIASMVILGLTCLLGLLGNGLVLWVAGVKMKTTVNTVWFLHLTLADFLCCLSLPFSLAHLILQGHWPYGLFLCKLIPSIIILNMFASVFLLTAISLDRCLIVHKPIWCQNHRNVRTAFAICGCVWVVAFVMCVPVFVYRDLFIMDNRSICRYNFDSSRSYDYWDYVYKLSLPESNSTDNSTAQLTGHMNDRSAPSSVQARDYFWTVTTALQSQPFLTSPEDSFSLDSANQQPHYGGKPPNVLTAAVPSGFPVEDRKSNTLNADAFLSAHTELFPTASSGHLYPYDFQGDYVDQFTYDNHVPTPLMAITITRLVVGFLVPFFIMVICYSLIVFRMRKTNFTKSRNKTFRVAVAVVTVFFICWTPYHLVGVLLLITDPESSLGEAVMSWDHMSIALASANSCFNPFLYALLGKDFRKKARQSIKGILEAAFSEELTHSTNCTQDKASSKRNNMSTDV
UniProt Q8TDU9, sequence (whole entry, unmodified, looked up): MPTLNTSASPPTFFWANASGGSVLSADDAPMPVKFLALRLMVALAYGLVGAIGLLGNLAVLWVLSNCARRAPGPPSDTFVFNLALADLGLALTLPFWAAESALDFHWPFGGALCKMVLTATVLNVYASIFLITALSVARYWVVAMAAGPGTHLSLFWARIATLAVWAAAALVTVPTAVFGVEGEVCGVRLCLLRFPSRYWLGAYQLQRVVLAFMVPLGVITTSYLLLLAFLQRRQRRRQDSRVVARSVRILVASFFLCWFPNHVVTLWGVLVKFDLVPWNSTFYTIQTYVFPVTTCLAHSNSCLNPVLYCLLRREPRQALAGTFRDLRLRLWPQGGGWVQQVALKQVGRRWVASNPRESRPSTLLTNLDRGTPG
UniProt Q9UKP6, sequence (whole entry, looked up): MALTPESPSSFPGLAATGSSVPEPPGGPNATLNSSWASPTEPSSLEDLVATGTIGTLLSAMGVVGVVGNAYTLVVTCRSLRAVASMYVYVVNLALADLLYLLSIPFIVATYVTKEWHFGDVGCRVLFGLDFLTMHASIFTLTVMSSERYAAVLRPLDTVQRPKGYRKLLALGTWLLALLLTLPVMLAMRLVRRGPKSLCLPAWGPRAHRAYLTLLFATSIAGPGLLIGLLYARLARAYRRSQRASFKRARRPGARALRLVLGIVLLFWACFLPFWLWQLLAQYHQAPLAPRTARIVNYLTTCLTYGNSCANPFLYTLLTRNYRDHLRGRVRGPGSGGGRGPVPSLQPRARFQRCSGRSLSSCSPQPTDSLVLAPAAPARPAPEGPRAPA
UniProt P20309, sequence (whole entry, looked up): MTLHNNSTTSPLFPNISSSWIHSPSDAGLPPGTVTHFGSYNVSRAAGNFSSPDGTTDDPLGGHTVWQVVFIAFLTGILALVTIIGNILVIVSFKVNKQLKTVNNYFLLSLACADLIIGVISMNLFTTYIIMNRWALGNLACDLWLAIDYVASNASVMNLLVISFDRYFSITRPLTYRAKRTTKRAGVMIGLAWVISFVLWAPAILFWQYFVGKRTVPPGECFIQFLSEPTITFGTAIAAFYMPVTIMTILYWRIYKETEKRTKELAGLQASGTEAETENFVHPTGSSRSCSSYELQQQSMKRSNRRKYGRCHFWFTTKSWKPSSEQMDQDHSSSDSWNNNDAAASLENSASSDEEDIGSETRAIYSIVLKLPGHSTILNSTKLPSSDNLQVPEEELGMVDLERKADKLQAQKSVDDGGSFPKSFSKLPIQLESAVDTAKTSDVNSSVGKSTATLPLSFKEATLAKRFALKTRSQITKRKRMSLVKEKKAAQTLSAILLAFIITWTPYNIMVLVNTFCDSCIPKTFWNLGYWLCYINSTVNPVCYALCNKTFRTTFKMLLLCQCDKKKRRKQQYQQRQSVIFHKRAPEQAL
UniProt Q969F8, sequence (whole entry, unmodified, looked up): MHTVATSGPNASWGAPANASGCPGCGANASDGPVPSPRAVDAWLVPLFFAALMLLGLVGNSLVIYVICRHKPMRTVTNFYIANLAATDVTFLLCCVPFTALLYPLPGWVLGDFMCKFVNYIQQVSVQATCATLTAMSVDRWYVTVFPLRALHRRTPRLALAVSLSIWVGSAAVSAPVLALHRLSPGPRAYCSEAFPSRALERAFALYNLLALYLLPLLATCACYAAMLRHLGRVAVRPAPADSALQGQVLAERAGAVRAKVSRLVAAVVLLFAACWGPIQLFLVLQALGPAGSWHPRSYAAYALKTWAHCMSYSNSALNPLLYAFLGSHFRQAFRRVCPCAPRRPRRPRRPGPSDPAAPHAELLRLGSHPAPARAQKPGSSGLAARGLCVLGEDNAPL
UniProt Q0P543, sequence (whole entry, looked up): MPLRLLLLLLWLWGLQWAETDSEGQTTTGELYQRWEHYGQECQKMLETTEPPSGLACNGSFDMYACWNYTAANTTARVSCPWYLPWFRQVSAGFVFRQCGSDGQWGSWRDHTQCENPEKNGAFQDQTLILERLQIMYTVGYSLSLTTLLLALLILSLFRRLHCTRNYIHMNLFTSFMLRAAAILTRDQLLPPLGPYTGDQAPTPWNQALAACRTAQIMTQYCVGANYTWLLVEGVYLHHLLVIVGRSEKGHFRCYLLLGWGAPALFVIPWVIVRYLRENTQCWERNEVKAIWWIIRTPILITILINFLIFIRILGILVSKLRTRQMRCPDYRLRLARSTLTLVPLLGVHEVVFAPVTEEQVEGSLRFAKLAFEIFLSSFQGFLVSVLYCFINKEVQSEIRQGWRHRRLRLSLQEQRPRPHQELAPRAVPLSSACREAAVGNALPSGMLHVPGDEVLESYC

| SMILES | tested on | assay | system | conditions | scale | quantity | result |
| --- | --- | --- | --- | --- | --- | --- | --- |
| C=CCn1c(=O)c2ccccc2n2c(SCC(=O)Nc3ccc(NC(C)=O)cc3)nnc12 | CHRM5 | receptor activation, agonist | – | concentration not given, 16 h | – | Emax | < 100% |
| CCCCCCOc1ccc(C(=O)OCC[N+]2(C)CC=CCC2)cc1 (centres unmarked) | CHRM5 | – | membranes | 100 µM, 15 h, with: carbachol | baseline: control | Emax | 1.3 ± 0.1 fold |
| CCc1cc(O)cc2c(/C=N/NC(=N)NCCc3ccc(Cl)cc3)c[nH]c12 | RXFP4 (Homo sapiens, UniProt Q8TDU9, L118A/V122A) | – | HEK-293T | – | baseline: wild type | Emax | 89.8 ± 9.02% |
| Cc1ncsc1-c1ccc(C(C)NC(=O)C2CC(O)CN2C(=O)C(NC(=O)CCCCCCCCCCN2CCCC(Nc3ncc(Cl)c(Nc4ccccc4S(=O)(=O)C(C)C)n3)C2)C(C)(C)C)cc1 (centres unmarked) | 22Rv1 | RNA-seq, measured: METTL15 mRNA | – | concentration not given | baseline: DMSO | log2 fold change | -1.08 |
| O=C(O)c1ccc(Nc2c(-c3ccccc3)nc3ccc(CON=Cc4sccc4-n4cccc4)cn23)cc1 (mixture of isomers) | TDP1 | enzyme activity, inhibitor | – | 100 µM, unpurified compound | – | inhibition | -6.2% |
| COc1cc2nc(C3CC3)nc(N3CCC(c4ccccc4OC)CC3)c2cc1OC | NTSR1 | β-arrestin recruitment, agonist | HEK-293T | – | – | Emax | 70.8% |
| COC1CN([C@H]2CC[C@H]([C@@]3(C)Oc4c(Cl)cc(C(=O)NCc5c(SC)cc(C)[nH]c5=O)c(C)c4O3)CC2)C1 | – | RNA-seq, measured: FMNL2 | human, whole blood | dose not given, 24 h | baseline: pretreatment baseline | log2 fold change | 1.63 |
| CC(C)C[C@H](NC(=O)[C@@H](N)[C@@H](C)O)C(=O)N[C@@H](CCC(N)=O)C(=O)N1CCC[C@H]1C(=O)N1CCC[C@H]1C(=O)N[C@@H](C)C(=O)N[C@@H](CO)C(=O)N[C@@H](CO)C(=O)N[C@@H](CCCNC(=N)N)C(=O)N[C@@H](CCCNC(=N)N)C(=O)N[C@@H](CCCNC(=N)N)C(=O)N[C@@H](Cc1c[nH]cn1)C(=O)N[C@@H](Cc1ccccc1)C(=O)N[C@@H](Cc1c[nH]cn1)C(=O)N[C@@H](Cc1c[nH]cn1)C(=O)N[C@@H](C)C(=O)N[C@@H](CC(C)C)C(=O)N1CCC[C@H]1C(=O)N1CCC[C@H]1C(=O)N[C@@H](C)C(=O)N[C@@H](CCCNC(=N)N)C(=O)O | C3a anaphylatoxin chemotactic receptor (C3ar1, Mus musculus, UniProt O09047) | GoA protein dissociation, agonist, NanoBiT | – | – | baseline: TLQP-21 | Emax | 37.2 ± 1.08% |
| CC[C@H](C)[C@H](NC(=O)[C@H](CO)NC(=O)[C@H](Cc1ccc(O)cc1)NC(=O)[C@H](CC(=O)O)NC(=O)[C@H](CO)NC(=O)[C@@H](NC(=O)[C@H](Cc1ccccc1)NC(=O)[C@@H](NC(=O)CNC(=O)[C@H](CCC(=O)O)NC(=O)[C@H](C)NC(=O)[C@@H](N)Cc1ccc(O)cc1)[C@@H](C)O)[C@@H](C)CC)C(=O)N[C@@H](C)C(=O)N[C@@H](CCSC)C(=O)N[C@@H](CC(=O)O)C(=O)N[C@@H](CCCCN)C(=O)N[C@H](C(=O)N[C@@H](Cc1c[nH]cn1)C(=O)N[C@@H](CCC(N)=O)C(=O)N[C@@H](CCC(N)=O)C(=O)N[C@@H](CC(=O)O)C(=O)N[C@@H](Cc1ccccc1)C(=O)N[C@H](C(=O)N[C@@H](CC(N)=O)C(=O)N[C@@H](Cc1c[nH]c2ccccc12)C(=O)N[C@@H](CC(C)C)C(=O)N[C@@H](CC(C)C)C(=O)N[C@@H](C)C(=O)N[C@@H](CCC(N)=O)C(=O)N[C@@H](CCCCN)C(=O)NCC(=O)N[C@@H](CCCCN)C(=O)N[C@@H](CCCCN)C(=O)N[C@@H](CC(N)=O)C(=O)N[C@@H](CC(=O)O)C(=O)N[C@@H](Cc1c[nH]c2ccccc12)C(=O)N[C@@H](CCCCN)C(=O)N[C@@H](Cc1c[nH]cn1)C(=O)N[C@@H](CC(N)=O)C(=O)N[C@H](C(=O)N[C@H](C(=O)N[C@@H](CCC(N)=O)C(N)=O)[C@@H](C)O)[C@@H](C)CC)C(C)C)[C@@H](C)CC | Gastric inhibitory polypeptide receptor (Mus musculus, UniProt Q0P543) | cAMP, agonist | HEK293 | – | – | Emax | 99% |
| CCCCOc1ccc(C(=O)OCC[N+]2(C)CC=CCC2)cc1 (centres unmarked) | CHRM3 (Homo sapiens, UniProt P20309) | – | membranes | 10 µM, 15 h, with: carbachol | baseline: control | Emax | 1.26 ± 0.06 fold |
| CC(C)[C@H](NC(=O)[C@@H]1CSSC(C)(C)[C@H](NC(=O)[C@@H](N)CC(=O)O)C(=O)N[C@@H](Cc2ccccc2)C(=O)N[C@H](Cc2c[nH]c3ccccc23)C(=O)N[C@@H](CCCN)C(=O)N[C@@H](Cc2ccc(O)cc2)C(=O)N1)C(=O)O | UTS2R (Homo sapiens, UniProt Q9UKP6) | β-arrestin recruitment, agonist, BRET | HEK293 | – | – | Emax | 22.2% |
| CNC(=N)NCCC[C@H](NC(=O)[C@H](CC(C)C)NC(=O)NNC(=O)[C@H](Cc1ccccc1)NC(=O)[C@@H](NC(=O)[C@H](CC(N)=O)NC(=O)[C@@H]1C[C@@H](O)CN1C(=O)[C@@H](Cc1ccc(O)cc1)NC(C)=O)[C@@H](C)O)C(=O)N[C@@H](Cc1c[nH]c2ccccc12)C(N)=O | KiSS-1 receptor (KISS1R, Homo sapiens, UniProt Q969F8, H152A) | inositol phosphate, agonist | HEK293 | – | – | Emax | 96.5% |
| COc1ccccc1C1CCN(c2nc(C3(F)CC3)nc3ccc(N(C)CCN4CCOCC4)cc23)CC1 | NTSR1 | β-arrestin recruitment, agonist | HEK-293T | – | – | Emax | 83.9% |
| Cn1c(C=NOCc2ccc(-c3nc4cc(-c5ccccc5)ccn4c3Nc3ccc(C(=O)O)cc3)cc2)nc2cc([N+](=O)[O-])ccc21 | TDP1 | enzyme activity, inhibitor | – | 100 µM, unpurified oxime | – | inhibition | 96.3% |

Repeated from above:
| SMILES | tested on | assay | system | conditions | scale | quantity | result |
| --- | --- | --- | --- | --- | --- | --- | --- |
| CCCCOc1ccc(C(=O)OCC[N+]2(C)CC=CCC2)cc1 (centres unmarked) | CHRM3 (Homo sapiens, UniProt P20309) | – | membranes | 10 µM, 15 h, with: carbachol | baseline: control | Emax | 1.26 ± 0.06 fold |
| COc1cc2nc(C3CC3)nc(N3CCC(c4ccccc4OC)CC3)c2cc1OC | NTSR1 | β-arrestin recruitment, agonist | HEK-293T | – | – | Emax | 70.8% |
